Results collected from several papers.
Each numbered part is a random draw from the data of one study; scales do not carry over between parts.

Study 1
Target: Histone acetyltransferase KAT6A, winged helix 2, GST fusion (KAT6A, Homo sapiens, UniProt Q92794, residues 85-181)
Method: protein binding microarray
Form: double-stranded DNA, one strand shown
Medium: in vitro
Concentration: not given
Setting: 8-mer, flanks averaged, mean of 2 arrays, mostly near background
Relative to: not given
Direction: higher = stronger binding
Residues (chain): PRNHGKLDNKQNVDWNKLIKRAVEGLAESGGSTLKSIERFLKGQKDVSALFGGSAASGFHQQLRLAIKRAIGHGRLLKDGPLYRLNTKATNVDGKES
With `CCGAGAGG` the E-score was 0.127.
`GCGGTAGC` gave an E-score of 0.116.
`ACTAAGCA` gave an E-score of 0.0663.
`TCAAATCA` has an E-score of -0.0601.
`CAACGAAG` has an E-score of 0.0563.
The E-score of `CCATTTAG` is reported as -0.12.
With `CTTCCCGA` the E-score was 0.199.
`AGTGGGGA` gave an E-score of -0.109.
The E-score of `AACACCCC` is reported as -0.135.
For `ACTAGTCG`, the E-score was -0.226.
For `ACCGATTA`, the E-score was -0.12.
With `ATCAGATC` the E-score was -0.118.
The E-score of `CAGTCAAA` is reported as 0.044.
For `CGGCGGGA`, the E-score was 0.183.
For `ATCAGTAC`, the E-score was 0.0208.
`CATTGCGG` has an E-score of -0.0639.
`AGCGAAGA` gave an E-score of 0.0122.
The E-score of `TTACGAAA` is reported as 0.011.
With `CACCTGGG` the E-score was 0.0932.

Study 2
Target: Fragile X messenger ribonucleoprotein 1, C-terminal low-complexity region (Fmr1, Mus musculus, UniProt P35922)
Method: RNA Bind-n-Seq
Form: RNA
Medium: in vitro
Concentration: 200 nM
Setting: whole 134-nt RNA, ends assumed
With: 150 mM LiCl
Relative to: input library
Direction: higher = stronger binding
All molecules: 7-deaza-guanosine replaces G
`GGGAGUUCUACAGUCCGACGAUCACCAUGCAGGUGGGCAUCUUUGGGAAGUGGGGCAAGGGGGGGAUAGGGAGGGGGAUAACACUUUGGGAACAGGUGGUCCCAGGUCGUUUCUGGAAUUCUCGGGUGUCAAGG` gave a log2 enrichment of 1.43.
`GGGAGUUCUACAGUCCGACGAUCCUAGAGAGCUGUAGUACACAUGGAUGAACGACGAGAAGAACAAAUUGUACAGUUACUGAAUUCUGUUCAAGCGAAGAAUGAUAAAGAGUCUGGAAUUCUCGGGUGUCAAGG` gave a log2 enrichment of -1.01.
With `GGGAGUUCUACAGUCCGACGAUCUGGGAGGUGGAUUUUGUUUAUUUUUUUAGCUCUUUUCCAGGGGUGGGAAUUUUUUUUUAAUAUGUGUCAUGAAUAAAGUUGUUUUUGAAAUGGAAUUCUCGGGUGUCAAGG` the log2 enrichment was 0.853.
`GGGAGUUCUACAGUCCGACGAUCCUGUGCUACACAUCGUAUGUACCGAAUCGGGGCCCCCCGGGCCCCCCGGGGCCCCCCGGGGAAAGUAUUAUGUUACGCCGUUCGGAUCUGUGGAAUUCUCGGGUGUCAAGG` has a log2 enrichment of -2.28.
The log2 enrichment of `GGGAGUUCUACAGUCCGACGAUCUCCUGUGCUACACAUCGUAUGUACCGAAUCGGGGAAAAAAAGGGGUUUGGGGUUUGGGGAAAGUAUUAUGUUACGCCGUUCGGAUCUGCAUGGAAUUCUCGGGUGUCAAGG` is reported as -1.18.
For `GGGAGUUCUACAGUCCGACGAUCCAAGUCCUGUGCUACACAUCGUAUGUACCGAAUCGGGGUUGGGGUUGGGUUGGGGAAAGUAUUAUGUUACGCCGUUCGGAUCUGCACUUCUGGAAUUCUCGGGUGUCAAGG`, the log2 enrichment was 0.356.
With `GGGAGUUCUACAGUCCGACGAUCUGGGUUCUUAUUUCUAACUUGCAUAUGUUUUGUUUUUCAGAAGGAGUUGAGCCUUCCAAGAAGAGGCAGCUUGUAAGUAGAUGAUUAUUAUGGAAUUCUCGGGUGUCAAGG` the log2 enrichment was -1.93.
For `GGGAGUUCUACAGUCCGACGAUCGAGGAGAUAAUCUCGGAAAAGUUACGGAAACCUGGGAAGUCGGCGAAACCCUACGUUCGGGUGUUUUCGGAAGCAGCCGAAGCGGCCGCCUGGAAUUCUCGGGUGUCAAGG`, the log2 enrichment was -1.32.

Study 3
Target: RING finger protein unkempt homolog, zinc fingers 1-6, GST-SBP tag (UNK, Homo sapiens, UniProt Q9C0B0, residues 30-357)
Chain of UniProt Q9C0B0 (30-357, looked up): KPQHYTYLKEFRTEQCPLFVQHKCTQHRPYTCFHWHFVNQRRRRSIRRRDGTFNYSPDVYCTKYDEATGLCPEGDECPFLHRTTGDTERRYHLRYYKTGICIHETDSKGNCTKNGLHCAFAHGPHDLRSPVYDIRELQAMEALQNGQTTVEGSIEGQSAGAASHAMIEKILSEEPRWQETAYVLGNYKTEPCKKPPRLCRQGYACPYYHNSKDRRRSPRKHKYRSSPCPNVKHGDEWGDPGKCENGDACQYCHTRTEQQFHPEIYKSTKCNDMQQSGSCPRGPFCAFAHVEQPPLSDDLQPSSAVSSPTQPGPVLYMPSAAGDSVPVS
Method: RNA Bind-n-Seq
Form: RNA
Medium: in vitro
Concentration: not given
Setting: RNA with constant flanks, human and mouse sites, ends assumed
Relative to: input RNA pool
Direction: higher = stronger binding
The bound/input enrichment of `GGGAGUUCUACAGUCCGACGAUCUGUAUGCUUUUCCUUGUGUAAAAUCAUUGUUCUUUUUGACAAGUGGUUUGUUUCAUUUAUUAUAGCUUUGAAAUAAAAAAUCGUGAGGGAAAAAAAAUCCAAUGAUUGUACUGUGGUUAGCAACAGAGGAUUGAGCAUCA` is reported as 0.382 ratio.
`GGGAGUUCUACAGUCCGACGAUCUUGAAAACACAGCACUUAGGUUGGCUUAGCUGCAGCCUCCUCAGAGGUCAGAUUAUUUAUUUAAAAUUACUGGUUGCAUCAAGAACCCAUAGGGUGUACAAACGGUUCUAUACAAUCUGCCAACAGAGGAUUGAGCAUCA` has a bound/input enrichment of 0.95 ratio.
`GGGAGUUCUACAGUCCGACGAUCAAUGUCAUCGAUGCCAAUUUCUGCAUGAAAGGAGAAGACCUGGACUCUCAGGUUGGAGUUAUAGAUUUUUCGAUGUAUCUCAAAGAUGGAAACAGUAGUAAAGGUAGUGAAGGGGAUGGACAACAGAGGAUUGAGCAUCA` gave a bound/input enrichment of 1.77 ratio.
With `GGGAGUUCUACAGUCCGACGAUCAUUGGCACCAACUUCCAGCUGGGGCUGAAGGACGGCAUCAUAUUGUGCGAACUCAUAAACAAGCUACAGCCAGGCUCUGUGAAGAAAGUCAACGAAUCCUCACUAAAUUGGCCCCAGUUGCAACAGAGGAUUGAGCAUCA` the bound/input enrichment was 0.103 ratio.
`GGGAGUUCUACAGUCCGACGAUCAGAGUCCAAUAAAAUCGCUGCCUCCCAGCUGUUUGGAUCACAGAGAGGUUUUUGCACUGCCAUAGGGCGCCCCCGUGAGGCGCUUCGCCCCCCACCAUGUUCCAGCGCCUCUCCAGCCUCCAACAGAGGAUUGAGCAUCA` gave a bound/input enrichment of 0.406 ratio.
The bound/input enrichment of `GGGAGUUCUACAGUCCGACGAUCCAUGCUUUGAAGCUGGAUUCUUUUGGCCAGUUUGUUGAAUUAUUGCCCAGCCUGGAAUUUAUUUCUCUGGACCAGAUGUUCCGUGAGCCACCCAAGGGCUGUGCUCGAGUUGGUCUGAGUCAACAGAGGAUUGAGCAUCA` is reported as 0.112 ratio.
For `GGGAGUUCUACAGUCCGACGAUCGGUGUAUCUAACUGGUGCACAAAUUACAUCAGGAUCAAUCAUGAUUUCUUAAAGUCUGGAUAGCUGAUCCAAACCAACUAGGUACUUCCAUACGUAUAUGGAAUGGAAUGUGGUGUCCUUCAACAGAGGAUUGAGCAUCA`, the bound/input enrichment was 0.434 ratio.
For `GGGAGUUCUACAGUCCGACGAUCAAGGAUGGUGAGCUCCCUGUGGAGGACGACAUUGACCUCAGUGACGUGGAGCUGGAUGACCUGGAGAAGGAUGAGUUGUGAGCCACGGCCCAGCCUUCCUUGGGCUUUCCUUGGGAGCGACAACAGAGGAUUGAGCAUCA`, the bound/input enrichment was 0.106 ratio.

Study 4
Target: RNA binding protein fox-1 homolog 2, RRM domain, GST-SBP tag (RBFOX2, Homo sapiens, UniProt O43251-10, residues 100-194)
Method: RNA Bind-n-Seq
Form: RNA
Medium: in vitro
Concentration: 365 nM
Setting: natural RNA segment, single round, ends assumed
Relative to: no-protein control
Direction: higher = stronger binding
Target sequence (chain): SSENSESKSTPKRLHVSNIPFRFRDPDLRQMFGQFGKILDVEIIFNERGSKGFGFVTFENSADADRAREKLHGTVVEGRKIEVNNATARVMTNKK
`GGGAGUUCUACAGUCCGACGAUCCAUUUGACUGGUUUGCCCUGGAAUCCACUGCACCUUUACACUGCACCAUGAAACCUACACUCCCUGGUAUCAUAGCGCGUCAUCACCUCAACAAGUCAGUCGUCUCCAUUUGGAAUUCUCGGGUGCCAA` — result for “RBNS enrichment (R)”: 0.994.
`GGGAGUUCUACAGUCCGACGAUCCUCCCAGCUCCUGACUGUGGCAGCUGUGGUAGUGGCAGUACCAGAAUUAGCCGCUUCUUUUCCUCCCAACCUCUUAGCCGGGUAGAGAGGCAUUCCCAGGGGCUCCUGUCUGGAAUUCUCGGGUGCCAA` — result for “RBNS enrichment (R)”: 0.465.
For `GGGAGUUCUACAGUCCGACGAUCGCAAAGAAAGAAACAGCCUUUAAAAGAACUUUCUAAGGGUGGUUUUUGAACCUCGCUGGACCUUGUAUGUGUGCACAUUUGCCAGAGAUUGAACAUAAUCCUCUUGGGACUGGAAUUCUCGGGUGCCAA`, “RBNS enrichment (R)” read 0.501.
`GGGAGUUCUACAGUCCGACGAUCUGAGGUGACUUGUAAAGAUUUUGUUAAGCUCAGGAUUUUUAAUAACACAGUUCACAAAACAGUACAAGGCAGUAUGACGAGAACUCAUCUUUGCUAACCUCAGCAGUUACUGGAAUUCUCGGGUGCCAA`: “RBNS enrichment (R)” 0.355.
`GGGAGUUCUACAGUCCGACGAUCUUAUGGACACAAAACCAGAGCACUUGAUGAACUCGGGGUACUAGGGUCAGGGCUUAUAGCAGGAUGUCUGGCUGCACCUGGCAUGACUGUUUGUUUCUCCAAGCCUGCUUUGGAAUUCUCGGGUGCCAA`: “RBNS enrichment (R)” 1.34.
For `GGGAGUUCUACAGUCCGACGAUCAGGUUCCGGACACAGGCUUCUGGGGGAAGGGUCUCCCUUGGCCAUCACGGGAAUGGAGUCCAUGCUAGAAAGAGCUCAGUGUUGGGCUGGGUUUGCCAGUAGAACACUGCUGGAAUUCUCGGGUGCCAA`, “RBNS enrichment (R)” read 0.587.
`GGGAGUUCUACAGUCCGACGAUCUACCCAUGAGCUGUCGUCAUUCACAGAGCCCUGUGCCAGGCCGUGUUCUGUGCCUGCCUGCGGUGAUGUAGCCAGAAGCACGUACUCAGGUCAUCAAGCCGAGAGGGCGUUGGAAUUCUCGGGUGCCAA` — result for “RBNS enrichment (R)”: 1.15.
For `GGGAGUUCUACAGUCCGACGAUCGGCAAGGUAGCGUUCCCCAAUCUGAAUACCUGCAGGCUCCCACAUGAGGGAGAGGGCAGACUCAGGUGGGAAGAUGUGCCAUGCGUAAGGCAUCAACGUGUAUCUGUGGGUGGAAUUCUCGGGUGCCAA`, “RBNS enrichment (R)” read 0.364.

Some of these lines once more (study 1):
`GCGGTAGC` gave an E-score of 0.116.
For `CGGCGGGA`, the E-score was 0.183.
The E-score of `AACACCCC` is reported as -0.135.
